Experimental data of several laboratories.
Each line is one published result; not all experiments were run side by side. “And” joins repeats or separate records; there may be more than shown. ± marks the error that the study gave.

CCCCCC(=O)Oc1c(C)c(OC)c2c(c1C)OC(=O)[C@@H](CCCC)[C@]2(O)/C=C/c1ccccc1 (relative stereo)
IC50 (FaDu; cell growth or viability, SRB; 72 h): > 50000 nM

NC(=O)c1ccc(-c2ccccc2Cl)c2c3c([nH]c12)CC[C@H](N)C3
IC50 (BGC-823; cell growth or viability): 19.4 nM

C=C1C(=O)OC2C1CCC(C)(O)C13C=CC(C)(C21)C1(C3)C(=O)OC2C3C(C)=CCC3C(C)(O)CC(OC(C)=O)C21 (stereo not shown)
IC50 (AML12; lipid accumulation, Nile Red staining; together with: palmitate/oleate): 6810 ± 480 nM

COc1ccc(/C=C/CN2CCCC(CCC(=O)NCc3ccc(F)c(F)c3)C2)cc1 (stereo not shown)
translation activity (Trypanosoma cruzi; reporter mRNA translation, inhibitor, item: Renilla luciferase mRNA; cell-free extract; concentration not given, test 2; relative to: positive over negative control): 98.6% and 93.9%

CCCCCC(=O)[O][Pt]([Cl])([Cl])[O]C(=O)CCCCC.N.N
IC50 (A549/DDP cisplatin-resistant; MTT; 48 h, together with: survivin siRNA 10 nM transfected 24 h before): 3050 ± 3750 nM

CNS(=O)(=O)Nc1nccc(Cc2c(C)c3ccc(Oc4ncccc4F)cc3oc2=O)c1F
IC50 (MEC1; cell viability; 7 days): > 1000 nM

CCOc1cncc(-c2ccc(NC(=O)C3(c4ccnc(NS(=O)(=O)C5CC5)n4)CCOCC3)nc2)n1
IC50 (colon cancer; cell viability, CellTiter-Glo; DMSO 0.1%; 72 h, line code 94): 199 nM

CC(C)c1ccc(N(C)c2ccc3c(c2)OCC[C@H]3CNc2cnccc2C(=O)O)cc1
IC50 (HCC78; cell growth or viability, ATP luminescence; 7 days): 23.9 nM

COC(=O)N1c2ccc3c(nc(Cc4ccccc4)n3[C@@H]3CCC[C@@H](C(=O)O)C3)c2CC[C@@H]1C
IC50 (HCC1806; cell growth or viability, ATP luminescence; 10 days): 1480 nM

CC(C)=CCCC(C)CN(C)CCc1ccccn1 (stereo not shown)
translation activity (Trypanosoma cruzi; reporter mRNA translation, inhibitor, item: Renilla luciferase mRNA; cell-free extract; concentration not given, test 2; relative to: positive over negative control): 96.8%

Cn1ncc(-c2ccc3c(=O)[nH]nc(CN)c3c2)c1-c1c(F)c(Cl)cc(OC2CC2)c1C#N
IC50 (HCC1806; cell viability, inhibitor, CellTiter-Glo; 120 h, baseline-subtracted): 2990 nM

CC1(C)CC(=O)C(C2C3=C(CC(C)(C)CC3=O)Oc3ccc4ccccc4c32)=C(O)C1 (stereo not shown)
IC50 (3T3-L1; cell growth or viability, MTT; 72 h): 26.1 µg/mL

CCCCCCCCCCCCSCC(COCC(O)C[N+](C)(CCO)CCO)SCCCCCCCCCCCC (stereo not shown)
IC50 (BHK-21; cell growth or viability, MTT): 79900 nM

NCc1ccc2c(c1)CN(C1CCC(=O)NC1=O)C2=O (stereo not shown)
IC50 (SNU-398; cell growth or viability, ATP luminescence): > 22800 nM

CC[C@H]1CC[C@H]2[C@@H]3C[C@@H](O)[C@@]4(O)C[C@H](N)CC[C@]4(C)[C@H]3CC[C@]12C
IC50 (HMC3; cell growth or viability, imaging): 1020 nM

N#Cc1c(N)nc2c(c1-c1ccc(CO)o1)Cc1cc(O)ccc1-2
IC50 (HBP-ALL; cell viability, CellTiter-Glo; no inhibition at 100 µM): 6300 nM

Excerpt of the above:
CCCCCCCCCCCCSCC(COCC(O)C[N+](C)(CCO)CCO)SCCCCCCCCCCCC (stereo not shown)
IC50 (BHK-21; cell growth or viability, MTT): 79900 nM

NCc1ccc2c(c1)CN(C1CCC(=O)NC1=O)C2=O (stereo not shown)
IC50 (SNU-398; cell growth or viability, ATP luminescence): > 22800 nM
